Measured values collected from several papers.
Each line is one published result; not all experiments were run side by side. Values joined by “and” are separate records of one study, mostly repeats; a detail may differ. Numbers after ± are the reported error.
GLP1R: Glucagon-like peptide 1 receptor (GLP1R, Homo sapiens, UniProt P43220)
Chain of UniProt P29317 (whole entry, looked up): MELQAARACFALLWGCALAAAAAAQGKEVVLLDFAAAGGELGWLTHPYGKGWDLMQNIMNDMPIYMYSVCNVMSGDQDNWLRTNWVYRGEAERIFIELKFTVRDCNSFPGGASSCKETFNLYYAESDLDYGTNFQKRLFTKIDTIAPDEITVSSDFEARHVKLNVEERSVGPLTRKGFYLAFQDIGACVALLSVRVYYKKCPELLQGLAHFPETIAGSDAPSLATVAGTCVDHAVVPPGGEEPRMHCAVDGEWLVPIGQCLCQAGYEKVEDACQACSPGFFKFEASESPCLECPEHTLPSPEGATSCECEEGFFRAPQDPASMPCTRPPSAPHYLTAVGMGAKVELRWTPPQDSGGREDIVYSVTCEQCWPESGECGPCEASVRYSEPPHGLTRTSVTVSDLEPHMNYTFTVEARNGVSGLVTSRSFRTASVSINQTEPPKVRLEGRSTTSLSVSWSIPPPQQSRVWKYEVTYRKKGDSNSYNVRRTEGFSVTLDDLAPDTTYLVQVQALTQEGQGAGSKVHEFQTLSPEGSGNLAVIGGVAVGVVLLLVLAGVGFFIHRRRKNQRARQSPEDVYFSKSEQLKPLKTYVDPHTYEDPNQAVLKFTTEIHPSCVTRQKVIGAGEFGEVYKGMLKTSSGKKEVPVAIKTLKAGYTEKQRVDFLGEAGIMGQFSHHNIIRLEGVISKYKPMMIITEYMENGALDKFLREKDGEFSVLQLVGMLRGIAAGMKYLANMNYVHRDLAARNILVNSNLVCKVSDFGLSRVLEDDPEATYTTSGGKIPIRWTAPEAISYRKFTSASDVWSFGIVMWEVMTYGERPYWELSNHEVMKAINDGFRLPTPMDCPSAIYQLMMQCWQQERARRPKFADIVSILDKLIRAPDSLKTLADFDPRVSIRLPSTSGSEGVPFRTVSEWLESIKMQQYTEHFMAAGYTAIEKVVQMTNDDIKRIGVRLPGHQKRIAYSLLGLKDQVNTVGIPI

SMILES	target or system	assay	system	setting	scale	measurement	result
O=c1cc(-c2ccccc2)oc2c(O)c(O)ccc12	SH-SY5Y Aβ-GFP cells, scrambled shRNA			5 µM		neurite process number	3.7 to 3.8
CC(C)N1CCC(NC2CCN(c3cccc(-c4cc5cc(F)ccc5[nH]4)c3)CC2)CC1	SF-295					CC50	6910 nM
COc1c(CCC[P+](c2ccccc2)(c2ccccc2)c2ccccc2)cc2c(c1OC)OCO2.[I-]	SF-268	SRB				GI50	-5.69 log M
CC[C@H](C)[C@H](NC(=O)[C@H](Cc1ccccc1)NC(=O)[C@H](CCC(=O)O)NC(=O)[C@H](CCCNC(=N)N)NC(=O)[C@H](C)NC(=O)[C@H](C)NC(=O)[C@H](CCC(N)=O)NC(=O)[C@H](CCCCNc1c(NCCCCCN(O)C(=O)CCC(=O)NCCCCCN(O)C(=O)CCC(=O)NCCCCCN(O)C(C)=O)c(=O)c1=O)NC(=O)[C@H](CCC(=O)O)NC(=O)[C@H](CC(C)C)NC(=O)[C@H](Cc1ccc(O)cc1)NC(=O)[C@H](CO)NC(=O)[C@H](CO)NC(=O)[C@H](CCCCNc1c(NCCCCCN(O)C(=O)CCC(=O)NCCCCCN(O)C(=O)CCC(=O)NCCCCCN(O)C(C)=O)c(=O)c1=O)NC(=O)[C@H](CC(=O)O)NC(=O)[C@H](CO)NC(=O)[C@@H](NC(=O)[C@H](Cc1ccccc1)NC(=O)[C@@H](NC(=O)CNC(=O)[C@H](CCC(=O)O)NC(=O)[C@H](C)NC(=O)CCc1cnc[nH]1)[C@@H](C)O)[C@@H](C)O)C(=O)N[C@@H](C)C(=O)N[C@@H](Cc1c[nH]c2ccccc12)C(=O)N[C@@H](CC(C)C)C(=O)N[C@H](C(=O)N[C@@H](CCCNC(=N)N)C(=O)NCC(=O)N[C@@H](CCCNC(=N)N)C(=O)N[C@@H](CCCCNC(=O)COCCOCCNC(=O)COCCOCCNC(=O)CC[C@H](NC(=O)CCCCCCCCCCCCCCCCC(=O)O)C(=O)O)C(=O)O)C(C)C	GLP1R	cAMP reporter gene, agonist, CRE luciferase	BHK	with Zr, 0% HSA		EC50	0.11 nM
CNC(=O)Oc1cc(C)c(SC)c(C)c1	SH-SY5Y	neurite outgrowth inhibition, phase-contrast imaging		24 h, nominal concentration		EC10	3470 nM
Cc1nn(-c2nc3ccc(Cl)c(Cl)c3[nH]2)c(O)c1C1OC(=O)c2ccccc21 (stereo not shown)	RAW-ISG	CCK-8		100 µM		viability	24.9% and 21% and 19.6% and 22.2% and 19.8%
Oc1ccc(C2(c3ccc(O)cc3)c3ccccc3-c3ccccc32)cc1	HepG2 spheroids	planimetry		5 µM, 0 to 24 h	baseline: mean area of 72 h spheroids	spheroid area increase	126%
Cn1nccc1Nc1nccc(-c2cc3c(s2)C(C)(C)N(CCN2CCOCC2)C3=O)n1	HCT116	IncuCyte		concentration not given, 4 (unit not given)		PI-positive cells	4.33 count and 2.5 count and 4 count
COc1ccc2c(c1)[nH]c1c(C)nccc12	DU-145	bisulfite pyrosequencing, measured: RASSF1A promoter CpG site 2		10 µM, 16 h		DNA methylation	92.5%
O=C(O)C[C@H](NC(=O)[C@H](CC(=O)O)NC(=O)[C@H](CC(=O)O)NC(=O)[C@H](CC(=O)O)NC(=O)[C@H](CC(=O)O)NC(=O)[C@H](CC(=O)O)NC(=O)[C@H](CC(=O)O)NC(=O)[C@H](CC(=O)O)NC(=O)[C@H](CC(=O)O)NC(=O)[C@H](CC(=O)O)NC(=O)[C@H](CC(=O)O)NC(=O)[C@H](CCCCNC(=O)c1ccc(C(=O)NCCOCCOB2BBBBBB3BBBB3B2)cc1)NC(=O)CN1CCN(CC(=O)O)CCN(CC(=O)O)CCN(CC(=O)O)CC1)C(=O)O [gallium-67 labelled]			ddY male mice, muscle	intravenous, 37 kBq, 3 h		tissue uptake	0.43 %ID/g
CC(C)C[C@H](NC(=O)C[C@H](O)[C@H](CC(C)C)NC(=O)[C@H](Cc1c[nH]cn1)NC(=O)CNC(=O)[C@@H](NC(=O)[C@H](C)NC(=O)[C@H](Cc1c[nH]c2ccccc12)NC(=O)[C@H](CCC(N)=O)NC(=O)[C@@H](Cc1ccccc1)NC(=O)CCNC(=O)CCSc1nnc(NCCC(=O)NCCC(=O)NCCCC[C@H](NC(=O)N[C@@H](CCC(=O)O)C(=O)O)C(=O)O)c2c1CCC1C(CC2)C1COC(=O)NCCNC(=O)CC[C@H](C(=O)O)N1CCN(CC(=O)O)CCN(CC(=O)O)CC1)C(C)C)C(N)=O (stereo partly shown) [gallium-68 labelled]			athymic NMRI nude mice, 22Rv1 xenograft, tumour	intravenous, 2 h, with: PMPA 552 nmol co-injected		tissue uptake	0.37 %ID/g
COc1cc(CCC[P+](c2ccccc2)(c2ccccc2)c2ccccc2)c(OC)c2c1OCO2.[I-]	HT-29	SRB				TGI	-4.39 log M
C[C@H]1CN(c2n[nH]c3nc(N[C@H]4CC[C@H](NS(=O)(=O)CCC(F)(F)F)CC4)ncc23)CCO1	Tyrosine-protein kinase SYK (SYK, Homo sapiens, UniProt P43405)	inhibitor, Kinobeads competition profiling		0.8 µM	baseline: vehicle	relative abundance	1.08
CC(C)[C@@H]1NC(=O)[C@H](Cc2ccccc2)NC(=O)[C@@H]2NC(=O)[C@H](Cc3ccccc3)NC(=O)[C@@H]3CCCN3C(=O)CNC(=O)[C@H](Cc3ccccc3)NC(=O)[C@@H]3CNCCCC[C@@H](C(=O)O)NC(=O)[C@@H]4NC(=O)[C@H](CC(N)=O)NC(=O)CNC(=O)[C@H]([C@@H](O)C(=O)O)NC(=O)[C@H](CSC[C@@H](NC(=O)[C@H](CCC(N)=O)NC(=O)[C@H](CCCCNC(=O)c5ccc(NN)nc5)NC(=O)[C@@H](N)CS[C@H]4C)C(=O)N[C@@H](CS[C@H]2C)C(=O)N3)NC1=O [technetium-99m labelled]			rat, saline control, skin	intravenous, 2 h after tracer, tracer 2 h after reperfusion		tissue uptake	0.39 ± 0.27 %ID/g
C/C=C(/C)C(=O)O[C@H]1C(C)=C2[C@H]([C@@H]1OC(=O)CCCCCCC)[C@@](C)(OC(C)=O)C[C@H](OC(=O)CCC)[C@@]1(O)[C@H]2OC(=O)[C@@]1(C)O	HEK-293T	RNA-seq GSEA, measured: Hallmark mitotic spindle		500 nM, 6 h	direction not given	normalized enrichment score	-1.03
CC[C@H](C)[C@H](NC(=O)[C@H](Cc1ccccc1)NC(=O)[C@H](CCC(=O)O)NC(=O)[C@H](CCCNC(=N)N)NC(=O)[C@H](C)NC(=O)[C@H](C)NC(=O)[C@H](CCC(N)=O)NC(=O)[C@H](CCC(=O)O)NC(=O)[C@H](CCC(=O)O)NC(=O)[C@H](CC(C)C)NC(=O)[C@H](Cc1ccc(O)cc1)NC(=O)[C@H](CO)NC(=O)[C@H](CO)NC(=O)[C@@H](NC(=O)[C@H](CC(=O)O)NC(=O)[C@H](CO)NC(=O)[C@@H](NC(=O)[C@H](Cc1ccccc1)NC(=O)[C@@H](NC(=O)CNC(=O)[C@H](CCC(=O)O)NC(=O)[C@H](C)NC(=O)CCc1cnc[nH]1)[C@@H](C)O)[C@@H](C)O)C(C)C)C(=O)N[C@@H](C)C(=O)N[C@@H](Cc1c[nH]c2ccccc12)C(=O)N[C@@H](CC(C)C)C(=O)N[C@H](C(=O)N[C@@H](CCCNC(=N)N)C(=O)NCC(=O)N[C@@H](CCCNC(=N)N)C(=O)N[C@@H](CCCCNC(=O)COCCOCCNC(=O)COCCOCCNC(=O)CC[C@H](NC(=O)CCCCCCCCCCCCCCCCC(=O)O)C(=O)O)C(=O)NCC(=O)NCC(=O)N[C@@H](CO)C(=O)N[C@@H](CCCCNC(=O)[C@H](CCCCNc1c(NCCCCCN(O)C(=O)CCC(=O)NCCCCCN(O)C(=O)CCC(=O)NCCCCCN(O)C(C)=O)c(=O)c1=O)Nc1c(NCCCCCN(O)C(=O)CCC(=O)NCCCCCN(O)C(=O)CCC(=O)NCCCCCN(O)C(C)=O)c(=O)c1=O)C(=O)O)C(C)C	GLP1R	cAMP reporter gene, agonist, CRE luciferase	BHK	with Zr, 0% HSA		EC50	0.0029 nM
Cc1c(O)c(O)cc2c1CC=C1[C@@]2(C)CC[C@@]2(C)[C@@H]3C[C@](C)(C(=O)O)CC[C@]3(C)CC[C@]12C	MYBPC3 iPSC cardiomyocytes	plate-normalised		concentration not given, 24 h, hit retest		MyBP-C level	3.9%
Nc1ccncc1	hiPSC glutamatergic neurons	mean firing rate, multi-electrode array				lowest effective concentration	100 µM
CCCCC1(CCCC)CN(c2ccccc2)c2cc(SC)c(OCC(=O)N[C@@H](C(=O)NCC(=O)O)c3ccccc3)cc2S(=O)(=O)C1		measured: HDL cholesterol	human, serum	15 mg once daily, day 11		serum HDL-C	42.1 mg/dL
O=c1c(O)c(-c2ccc(O)c(O)c2)oc2cc(O)cc(O)c12	SH-SY5Y Aβ-GFP cells, scrambled shRNA			5 µM		neurite process number	3.7 to 3.8
COc1ccc(N2C(=O)N(c3c(C)cccc3Cl)Cc3cnc(Nc4ccc(C5CCN(C)CC5)cc4OC)nc32)nc1	Ephrin type-A receptor 2 (EPHA2, Homo sapiens, UniProt P29317)	kinase activity		0.5 µM		inhibition	91%
COc1c(C)c2c(c(O)c1C/C=C(\C)CCC(=O)O)C(=O)OC2	prostate cancer cell lines	cell proliferation		average over lines		IC50	1000 nM
O=C(NOC[C@H](O)CO)c1ccc(F)c(F)c1Nc1ccc(I)cc1F	HD-MB03			with: ribociclib 5 µM	baseline: ribociclib over DMSO	fold change in IC50	9.79
Cc1cc(C(C)(C)c2ccc(O)c(C)c2)ccc1O	HepG2 spheroids	flow cytometry		concentration not given, 96 h		cell cycle distribution	no effect
C[C@]12CC[C@H](O)C[C@H]1CC[C@@H]1[C@@H]2CC[C@]2(C)[C@@H](c3ccc(=O)oc3)CC[C@]12O	MCF7	RT-qPCR, measured: AGR2		50 nM, 48 h, without estradiol, unit not given	baseline: untreated	mRNA level	0.179 and 0.206 and 0.201
CC[C@H](C)[C@@H]1NC(=O)[C@@H]2CCCN2C(=O)[C@H](CC(C)C)NC(=O)[C@H](CC(C)C)NC(=O)CNC(=O)[C@@H](NC(=O)[C@@H](NC(=O)[C@H](CC(=O)O)NC(=O)CNC(=O)[C@@H](NC(=O)[C@H](C)NC(=O)CNC(=O)[C@H](CCCCN)NC(=O)[C@H](CC(C)C)NC(=O)[C@H](CC(C)C)NC(=O)[C@H](CCCCN)NC(=O)CNC(=O)[C@@H](NC(=O)[C@@H](N)CC(C)C)C(C)C)C(C)C)C(C)C)CSSC[C@@H](C(=O)O)NC1=O		RNA-seq, measured: Fam110c	mouse, traumatic brain injury model, frontal cortex and hippocampus	dose not given	baseline: TBI alone	log2 fold change	-2.71
Nc1ncnc2c1ncn2[C@@H]1O[C@@H]2COP(=O)(O)O[C@H]3[C@@H](O)[C@H](n4cnc5c(=O)[nH]cnc54)O[C@@H]3COP(=O)(O)O[C@H]2[C@H]1O	HFF-1	RNA sequencing, measured: Reactome Nucleobase catabolism		upregulated pathways	baseline: mock	fold enrichment	8.89
CC1(C)CN(CCCCC(=O)N[C@H](Cc2ccc(O)c(I)c2)C(=O)N[C@H](Cc2ccccc2)C(=O)N[C@H](CCCCNC(=O)CCCCCCC(=O)NCCCC[C@H](NC(=O)N[C@@H](CCC(=O)O)C(=O)O)C(=O)O)C(=O)O)CC[N]2CC(C)(C)[S][Tc]2(=[O])[S]1 (stereo partly shown) [technetium-99m labelled]	LNCaP			25 nM, 1 h, 4 °C		surface-bound activity	1.67 ± 0.24 %AD/mg protein

Some of these lines once more:
SMILES	target or system	assay	system	setting	scale	measurement	result
COc1ccc2c(c1)[nH]c1c(C)nccc12	DU-145	bisulfite pyrosequencing, measured: RASSF1A promoter CpG site 2		10 µM, 16 h		DNA methylation	92.5%
O=C(O)C[C@H](NC(=O)[C@H](CC(=O)O)NC(=O)[C@H](CC(=O)O)NC(=O)[C@H](CC(=O)O)NC(=O)[C@H](CC(=O)O)NC(=O)[C@H](CC(=O)O)NC(=O)[C@H](CC(=O)O)NC(=O)[C@H](CC(=O)O)NC(=O)[C@H](CC(=O)O)NC(=O)[C@H](CC(=O)O)NC(=O)[C@H](CC(=O)O)NC(=O)[C@H](CCCCNC(=O)c1ccc(C(=O)NCCOCCOB2BBBBBB3BBBB3B2)cc1)NC(=O)CN1CCN(CC(=O)O)CCN(CC(=O)O)CCN(CC(=O)O)CC1)C(=O)O [gallium-67 labelled]			ddY male mice, muscle	intravenous, 37 kBq, 3 h		tissue uptake	0.43 %ID/g
CC(C)C[C@H](NC(=O)C[C@H](O)[C@H](CC(C)C)NC(=O)[C@H](Cc1c[nH]cn1)NC(=O)CNC(=O)[C@@H](NC(=O)[C@H](C)NC(=O)[C@H](Cc1c[nH]c2ccccc12)NC(=O)[C@H](CCC(N)=O)NC(=O)[C@@H](Cc1ccccc1)NC(=O)CCNC(=O)CCSc1nnc(NCCC(=O)NCCC(=O)NCCCC[C@H](NC(=O)N[C@@H](CCC(=O)O)C(=O)O)C(=O)O)c2c1CCC1C(CC2)C1COC(=O)NCCNC(=O)CC[C@H](C(=O)O)N1CCN(CC(=O)O)CCN(CC(=O)O)CC1)C(C)C)C(N)=O (stereo partly shown) [gallium-68 labelled]			athymic NMRI nude mice, 22Rv1 xenograft, tumour	intravenous, 2 h, with: PMPA 552 nmol co-injected		tissue uptake	0.37 %ID/g
COc1cc(CCC[P+](c2ccccc2)(c2ccccc2)c2ccccc2)c(OC)c2c1OCO2.[I-]	HT-29	SRB				TGI	-4.39 log M
